# Assay results pooled from the literature.
# Parts stem from different laboratories: compare values within a part only.

# Set 1 — technique: universal PBM; form: double-stranded DNA, one strand shown; sample: in vitro; concentration: not given; reading: higher = stronger binding
# Target: Sal-like protein 4, full length isoform B (SALL4, Homo sapiens, UniProt Q9UJQ4-2, residues 1-616)
# Notes: 8-mer, flanks averaged, mean of replicates
# Construct (chain): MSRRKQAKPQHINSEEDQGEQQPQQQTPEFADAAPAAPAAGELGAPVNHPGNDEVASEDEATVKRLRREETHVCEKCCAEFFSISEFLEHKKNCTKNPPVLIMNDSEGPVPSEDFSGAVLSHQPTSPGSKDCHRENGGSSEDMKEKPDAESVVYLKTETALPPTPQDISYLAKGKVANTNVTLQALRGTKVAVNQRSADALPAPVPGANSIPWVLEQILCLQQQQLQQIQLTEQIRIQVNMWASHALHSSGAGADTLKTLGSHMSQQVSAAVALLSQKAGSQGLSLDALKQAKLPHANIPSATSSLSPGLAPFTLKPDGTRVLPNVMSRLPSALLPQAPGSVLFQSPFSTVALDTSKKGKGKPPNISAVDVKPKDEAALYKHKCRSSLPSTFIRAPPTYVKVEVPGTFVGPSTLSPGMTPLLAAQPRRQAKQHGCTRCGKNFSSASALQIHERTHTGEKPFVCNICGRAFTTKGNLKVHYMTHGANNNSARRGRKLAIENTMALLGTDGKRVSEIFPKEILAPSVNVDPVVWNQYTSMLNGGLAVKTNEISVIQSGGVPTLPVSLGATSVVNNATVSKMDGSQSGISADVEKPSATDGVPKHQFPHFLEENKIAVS
Sequence,E-score
CTAGGAGC,-0.268
GACTCAAA,-0.0767
GCTCGACA,-0.123
CTACCGTC,-0.252
ACAGTCAT,0.14
AAGCCGTA,0.0804
GTTTCATA,0.336

# Set 2 — technique: protein binding microarray; form: double-stranded DNA, one strand shown; sample: in vitro; concentration: not given; relative to: not given; reading: higher = stronger binding
# Target: Histone acetyltransferase KAT6A, winged helix 1, GST fusion (KAT6A, Homo sapiens, UniProt Q92794, residues 1-85)
# Notes: 8-mer, flanks averaged, mean of 2 arrays, mostly near background
# Target sequence (chain): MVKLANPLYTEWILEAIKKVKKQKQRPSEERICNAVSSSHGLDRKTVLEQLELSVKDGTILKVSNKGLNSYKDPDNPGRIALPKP
Sequence,E-score
CTAGAATA,-0.166
CCTGACAA,-0.202
CAGATCAA,-0.179
AGACGACA,-0.0499
ATGCACCC,0.0347

# Set 3 — technique: competition protein-binding microarray; form: double-stranded DNA, one strand shown; sample: in vitro; concentration: 2 µM; together with: Pho4 competitor, 0.05 µM; reading: higher = stronger binding; all sequences stand within: … GTCTTGATTCGCTTGACGCTGCTG
# Target: Centromere-binding protein 1, full length, His-tagged (CBF1, Saccharomyces cerevisiae, UniProt P17106, residues 1-351)
# Chain of UniProt P17106 (whole entry, looked up): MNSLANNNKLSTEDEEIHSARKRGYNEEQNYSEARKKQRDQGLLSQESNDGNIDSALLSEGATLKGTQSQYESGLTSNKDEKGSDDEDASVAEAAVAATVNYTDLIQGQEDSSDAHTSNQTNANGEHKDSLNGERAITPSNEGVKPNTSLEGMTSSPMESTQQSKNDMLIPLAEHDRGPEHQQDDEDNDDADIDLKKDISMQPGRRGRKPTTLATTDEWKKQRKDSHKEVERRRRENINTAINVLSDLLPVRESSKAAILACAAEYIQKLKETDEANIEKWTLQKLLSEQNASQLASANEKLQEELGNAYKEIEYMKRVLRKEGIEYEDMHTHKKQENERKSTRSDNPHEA
# Notes: whole 60-bp probe, lowest competitor level
Sequence,fluorescence intensity
TGCGGCCATAAGCGTCACAGGCCACTCACTGGGAGG,81.2 a.u.
ATAGTACAAATCCGTCACATGATGATATTTGATTTT,1270 a.u.
AAAGCGGTAATTTGCCGGGTGGGTGCAGATATCTAT,72.5 a.u.
CGAGATTCATACAATGGCGTGCAAACAAAATGATTA,92.2 a.u.
GTCGTCGTCGTACTCATCTAATAGTTCAATGTCTAA,65.5 a.u.
TCATTTCGAATCGCGTACGTGGCCGGTTGTGGCTGG,73.3 a.u.
CTCTCCATTCATTCACACGTCATACATGGCTAACTG,77.5 a.u.

# Other studies, line by line
Molecule,target,assay,system,setting,how to read,quantity,value
"PhoQ, residues 284 288 289 292 302 303 NLALSC","PhoP, residues 12 14 15 18 19 YHFSH (Escherichia coli, UniProt P23836)","Sort-seq, refers to: YFP reporter",E. coli,"PhoQ-PhoP variant library, together with: 10 µM Mg2+","relative to: high Mg2+ state, higher = stronger signaling",fold induction,2.18

# A few entries again (set 2):
Sequence,E-score
AGACGACA,-0.0499
CCTGACAA,-0.202
ATGCACCC,0.0347
